# Experimental data from different studies.
# Parts stem from different laboratories: compare values within a part only. Positions count from the first letter of the parent shown.

# Series 1 — method: protein-binding microarray; form: double-stranded DNA, one strand shown; medium: in vitro; tested at: 2540 nM top; notes: 60-bp whole probe; together with: salmon DNA 0.4 mg/ml; relative to: random background probes; direction: higher = stronger binding; all sequences stand within: GCCTAGCAC … GTCTTGATTCGCTTGACGCTGCTG
# Target: Interferon regulatory factor 3, full length, phosphomimetic (IRF3, Homo sapiens, UniProt Q14653, residues 1-427, S386D/S396D/S398D/S402D/T404D/S405D)
# Target sequence (chain): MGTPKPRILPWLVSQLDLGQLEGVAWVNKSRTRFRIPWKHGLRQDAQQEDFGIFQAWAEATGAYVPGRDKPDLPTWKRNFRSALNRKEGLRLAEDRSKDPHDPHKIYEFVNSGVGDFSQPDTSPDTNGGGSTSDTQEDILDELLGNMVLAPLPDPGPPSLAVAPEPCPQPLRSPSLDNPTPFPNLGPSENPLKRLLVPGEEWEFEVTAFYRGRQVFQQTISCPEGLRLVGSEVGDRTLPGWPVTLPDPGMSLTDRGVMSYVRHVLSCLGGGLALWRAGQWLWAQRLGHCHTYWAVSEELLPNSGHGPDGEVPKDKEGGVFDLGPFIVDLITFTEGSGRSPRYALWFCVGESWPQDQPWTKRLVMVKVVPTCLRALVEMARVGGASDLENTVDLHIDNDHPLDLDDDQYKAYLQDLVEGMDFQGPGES
Strand,fitted relative affinity
GACGGACTGGGTATCGGGATGTGCTAG,-0.0626 z-score
TTAAGTCTCCTTTTCCTTTAGTGCTAG,6.02 z-score
TTAAGTCTCCTACTGCTTTAGTGCTAG,1.12 z-score
TTAGGTACCCTTCTCCTTTAGTGCTAG,5.79 z-score
GACGGTCTCGGTATCCGGACGTGCTAG,2.19 z-score
TCAGTTTTCACTTTTCCACTGTGCTAG,3.93 z-score
GACGATATCAGTCTCAAGACGTGCTAG,1.04 z-score
TTAGGTTTCCTTCTCATTTAGTGCTAG,10.1 z-score
TCACATCTCATATAAATAACTGTGCTA,1.4 z-score
GACGGTATCGACACTGGGGCCGTGCTA,0.378 z-score
TTCACTCTCTGCTTGTGTCTGTGCTAG,0.154 z-score
TTAGGACTGGACACTTGGTTAGTGCTA,-0.711 z-score
TGAGGTCTCGGACTGGGTTAGTGCTAG,-0.893 z-score
TTAGGTTTCGACAATGGGTTAGTGCTA,1.81 z-score
TTTACTTTCTACGTCTGATTGTGCTAG,3.98 z-score
TTAGGTCGCCTTATCCTTTAGTGCTAG,1.07 z-score
TCATTTACCCATCTCCAACTGTGCTAG,3.46 z-score
GACGGTCTCGGTTTCGGGTCGTGCTAG,4.33 z-score
GGCTCTCAGTGGGCTGCTGGGTGCTAG,-1.04 z-score
TTAGGTTACCTACTGCTTTAGTGCTAG,1.9 z-score
TCAAACCCCATTCTCAGACTGTGCTAG,1.21 z-score
TTAGGTATCCTTCTCCTTGAGTGCTAG,6.71 z-score
GACGGTCTCGCACTGGGGACGTGCTAG,-0.0903 z-score
TCATTTTGCTTTCTTTTACTGTGCTAG,2.97 z-score
GATGAACTGAGTATCGAGACGTGCTAG,-0.341 z-score

# Series 2 — method: RNA Bind-n-Seq; form: RNA; medium: in vitro; tested at: 365 nM; relative to: no-protein control; direction: higher = stronger binding
# Target: RNA binding protein fox-1 homolog 2, RRM domain, GST-SBP tag (RBFOX2, Homo sapiens, UniProt O43251-10, residues 100-194)
# Notes: natural RNA segment, single round, ends assumed
# All sequences stand within: GGGAGUUCUACAGUCCGACGAUC … UGGAAUUCUCGGGUGCCAA
# Construct (chain): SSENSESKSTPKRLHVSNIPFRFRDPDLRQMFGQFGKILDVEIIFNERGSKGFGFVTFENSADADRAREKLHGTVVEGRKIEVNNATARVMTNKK
Strand,RBNS enrichment (R)
GGUUGUGCAAACAUCACGGGGCCCUACCCUGAUCCCCAAGGCCCCACCAUCACUGCCCAAGGGGGUAAAAAAGAGAAAAAGCCCUCAAAAACAGUUCUUACUCCUGUGUU,0.516
UUUUAAAAUAGAGAUAGUUACAUAUUUUCCUCAUCUAGGCUGUGUCACUAUUGGGUGCAAGGAUAUCAUUGUUGGCUAGAUUCAUUUUGUAUAAUCAUGUAUCCUCUUGU,0.373
AGUAGCCAAAUCUUUUUCUAAUAAACUCAAUGUUCAGCUCCUCUGUGUUUAAGUUCUCGUAUCCUUGGUGGACACGGACACUAAGAAUCAACUAUGUAGUUGAUUUUUUU,0.476
UGAGCCUUAUCUAAUCCAGGUAGCUUCCUAGUUAAAGACUUGGUUAUCUGCUUCUUUUUACUUCUCCAGGUUUUGAUUUGUUUUGUUUUGUUUUAUUUGCGGGGGGAGUG,2.61
GAAUACAUUUCUGUACACCUUAUUGUUUGGCCAGAGGGCCACCAAGUGUACUUAUAUGUAAUCCUUAAAUUUUAAACUAGCUUGUGAUUUUUAAAUAUUUCUAAACUUUU,5.7
GGCACUUGCAUGGGAGCCACAGAGGAGCGUCCCUGGGGAUUGUUGGGACCAUGCUGCCCCCACUCCCGCUUUUGUUGGGGCUCUAAGUUCUGGAAGGUGUGUGCACAGAG,10.5
AUGCUGUGGUUUAACAUUGACACUUAAAGCAUGUGGUCACUGGGAAGGAUUGUAAUGUCAGCAGGUGUUGCCUGAAAGAGUUCUGUGUAGACACUUCUGGGACGUUGCUG,2.06
GCCUUUGCUUCAAAUGGUUUGAGUCACCAACAGACUUGUUUGGGAGUGGCCUCAGUAAAUGACAGAAAAACUGACAGGCUCAGUUUUGGAAGACAGCAAACUGGUAAGGU,0.415
CCAGUGCACCUCCCUCCCCAGCUCCGGAGGGGGUCCUCCUCGCUCCUCCUUCCCAGGGACCAGCACCUUCAAGCGCUCCAGGGCCGUGAGGGCAAGAGGGGGACCUGCCA,0.381
UCUGGCAUGUGAGUGCAUAUGUGUGACUGCCCCACUGUGGGACCUGCCACAUCCCUCCAUCCAUGUCUUUUCUGUGUCCUUUGCACGUGUGAGUGCUCGAGUGUAUGUGC,5.48
UGAGGCUGAACCCUCUCAAAGGGCUGUCACCAUCACCUGCUGCUAGGACACUACAAAACAAUCAAAUAAUUCUUUUCUGUAAUCCAAUAUGCAGCAAGCAAGGGUGACCU,0.267
AACCAGGCUGAGCCAGGCCUCCACCCCCACCCCCGUUUGCUGGGGGCUCCUCCAGCCGCCCCCAUGGGAAGAGGCCUGGUACCGCCUCACCCACAGAGGUCUGUGCCAGG,2.32

# Series 3 — method: DHFR PCA, deep sequencing; medium: yeast; together with: (+)-ABA 17 µM; relative to: wild-type fitted maximum; direction: higher = stronger binding
# Target: ABI1, truncated, D143A, DHFR fusion (Arabidopsis thaliana)
# Notes: methotrexate growth selection, single substitutions
# Parent: PYL1, truncated, DHFR fusion (Arabidopsis thaliana); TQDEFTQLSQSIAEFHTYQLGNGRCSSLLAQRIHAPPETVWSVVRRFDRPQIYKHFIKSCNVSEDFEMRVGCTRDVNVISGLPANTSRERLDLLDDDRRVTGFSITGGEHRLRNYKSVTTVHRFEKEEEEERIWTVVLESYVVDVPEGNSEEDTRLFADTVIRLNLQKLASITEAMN
Variant,relative binding score [%]
F47A,-5.13
K126F,80.2
E174V,53.9
S11C,82.3
E151R,76.3
C25L,43.1
A158I,103
E174P,27.4
R98Q,76.4
L164I,79.8
D92F,6.85
T135W,0.508
E127P,96
H110N,80.4
M68H,65.3
L94Q,4.3
E4Q,73.7

# Series 4 — method: protein-binding microarray; form: double-stranded DNA, one strand shown; medium: in vitro; tested at: not given; direction: higher = stronger binding
# Target: Runt-related transcription factor 1 (RUNX1, Homo sapiens, UniProt Q01196, residues 1-453, full length assumed)
# Chain of UniProt Q01196 (whole entry, looked up): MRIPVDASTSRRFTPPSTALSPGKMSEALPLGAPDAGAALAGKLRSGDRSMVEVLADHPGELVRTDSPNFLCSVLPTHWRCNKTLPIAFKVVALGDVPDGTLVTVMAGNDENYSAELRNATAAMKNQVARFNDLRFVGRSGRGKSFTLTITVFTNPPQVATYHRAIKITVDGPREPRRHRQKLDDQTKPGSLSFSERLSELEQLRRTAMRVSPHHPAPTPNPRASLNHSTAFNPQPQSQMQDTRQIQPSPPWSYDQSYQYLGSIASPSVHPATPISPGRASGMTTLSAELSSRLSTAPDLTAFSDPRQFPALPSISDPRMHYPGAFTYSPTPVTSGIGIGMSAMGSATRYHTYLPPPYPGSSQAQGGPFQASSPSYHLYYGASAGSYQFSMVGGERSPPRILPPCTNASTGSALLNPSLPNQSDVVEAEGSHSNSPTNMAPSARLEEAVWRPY
# Notes: k-mer, scored over probes, only values ≥0.25
Strand,E-score
GCGGTAA,0.386
CCCACAC,0.337
ATTGCGG,0.349
ACCGCAG,0.489
ACCGCAC,0.456
GTGGTGA,0.301
AAAACCG,0.311
AACCACC,0.345
GTTATTA,0.252
CGGTTAG,0.3
CCCACAA,0.335
CACAACC,0.271
GTGGTTA,0.458
CCGCAAA,0.462
CGACCGC,0.342
ACCGCTA,0.26
CAATATC,0.265

# Series 5 — method: protein binding microarray; form: double-stranded DNA, one strand shown; medium: in vitro; tested at: not given; relative to: not given; direction: higher = stronger binding
# Target: Histone acetyltransferase KAT6A, winged helix 1, GST fusion (KAT6A, Homo sapiens, UniProt Q92794, residues 1-85)
# Notes: 8-mer, flanks averaged, mean of 2 arrays, mostly near background
# Construct (chain): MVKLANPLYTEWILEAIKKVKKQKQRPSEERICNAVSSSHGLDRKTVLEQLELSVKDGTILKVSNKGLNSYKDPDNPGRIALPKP
Strand,E-score
GCCCGGCC,0.318
CAGTGCAC,0.0138
CGGAAACG,0.265
ACTCTTTC,-0.0917
GCTTCGCA,0.126
AGCAGAAG,-0.053
AAAACATT,-0.0906
CGGTGTCA,0.0825
TACTGTGA,-0.197
AACAGGGA,-0.121
TTCAGCAA,-0.246
AATTGTTC,-0.154
CAGTCAGG,-0.159
GCTGGAGA,-0.159
AAAAGGGG,0.0151
ACGCTAAG,0.113
GCACAGCA,-0.0282
AAAGTGTA,-0.23
CCCGGCCA,0.0938
GAACTGGA,-0.0507
ATAGAGTG,-0.09
GCTTTCCC,0.0463
AACCCAGG,-0.159
AGTGGGCC,-0.221
AGATCATA,-0.109

# Series 6 — target: CCNB1, cyclin fold, Cln2 fusion (human); method: yeast growth competition, sequencing; medium: yeast; notes: weak parent motif; relative to: not given; direction: higher = stronger binding
# Parent: CDKN1C docking peptide (human); TSACRSLFGPVDH
Variant,normalised enrichment score
F8A,0.352
S2A,0.743
R5K F8L,0.101
P10A,0.324
G9A,0.534
L7A,0.0239
S6A,0.447

# Series 7 — method: RNAcompete; form: RNA; medium: in vitro; tested at: 20 nM; notes: 7-mer, probes averaged, single round; relative to: mean of 7-mers; direction: higher = stronger binding
# Target: PABPC1L2, full length, GST fusion (mouse, UniProt A0ABA7IW68)
Strand,7-mer Z-score
GACCAGG,0.0243
GUGAUGG,-0.199
CUGCAGC,-0.376
UAGAUGG,-0.0228
CGCGAGC,-0.356
GAAAGGU,0.0932
CAGUAAC,-0.0446
ACUAGAU,0.0315

# Series 8 — method: universal PBM; form: double-stranded DNA, one strand shown; medium: in vitro; tested at: 600 nM; direction: higher = stronger binding
# Target: Sal-like protein 4, full length isoform A (SALL4, Homo sapiens, UniProt Q9UJQ4, residues 1-1053)
# Chain of UniProt Q9UJQ4 (whole entry, looked up): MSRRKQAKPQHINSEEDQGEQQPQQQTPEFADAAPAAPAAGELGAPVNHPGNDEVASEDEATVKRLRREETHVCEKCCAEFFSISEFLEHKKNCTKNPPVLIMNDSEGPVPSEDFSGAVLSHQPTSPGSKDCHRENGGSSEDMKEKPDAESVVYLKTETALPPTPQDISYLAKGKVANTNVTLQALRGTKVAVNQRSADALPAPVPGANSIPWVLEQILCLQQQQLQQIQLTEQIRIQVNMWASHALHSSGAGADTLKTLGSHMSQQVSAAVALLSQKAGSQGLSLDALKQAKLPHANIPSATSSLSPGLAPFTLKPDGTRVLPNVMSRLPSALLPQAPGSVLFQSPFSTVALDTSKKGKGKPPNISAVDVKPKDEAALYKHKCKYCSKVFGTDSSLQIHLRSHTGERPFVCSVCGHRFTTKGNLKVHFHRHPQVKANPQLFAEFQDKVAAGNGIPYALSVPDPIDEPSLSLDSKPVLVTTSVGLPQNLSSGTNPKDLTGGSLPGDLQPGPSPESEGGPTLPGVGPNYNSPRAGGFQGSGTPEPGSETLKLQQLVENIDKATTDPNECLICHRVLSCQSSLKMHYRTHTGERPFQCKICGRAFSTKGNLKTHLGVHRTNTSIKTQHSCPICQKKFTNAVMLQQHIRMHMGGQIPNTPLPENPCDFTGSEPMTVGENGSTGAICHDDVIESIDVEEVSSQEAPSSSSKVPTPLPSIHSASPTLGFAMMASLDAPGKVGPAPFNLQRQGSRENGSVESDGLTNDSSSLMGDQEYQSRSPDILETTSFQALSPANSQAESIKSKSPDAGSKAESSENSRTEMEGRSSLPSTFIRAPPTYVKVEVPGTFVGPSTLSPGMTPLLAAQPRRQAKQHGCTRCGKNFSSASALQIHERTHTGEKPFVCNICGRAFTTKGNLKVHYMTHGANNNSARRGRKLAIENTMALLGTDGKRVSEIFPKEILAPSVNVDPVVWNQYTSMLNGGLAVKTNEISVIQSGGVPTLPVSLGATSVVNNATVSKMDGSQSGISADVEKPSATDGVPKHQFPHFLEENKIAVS
# Notes: 8-mer, flanks averaged, mean of replicates
Strand,E-score
ATTAATTC,0.338
CGCCATAC,-0.0466
AACAAGAC,0.0767
GTGCAGCA,-0.237
GGTGGCTA,-0.193
AGAATTAA,0.218
TGCGTCCA,-0.274
AGTAATAG,0.33
ACGGATCT,-0.0889
AAAGGTGA,0.0899
CCGGCTGA,-0.336
CGCATGCC,-0.0858
AGCTGACG,-0.0968
CGCTTGTA,-0.0183
CTCTTACC,-0.0719
CTAATTCA,0.322
ATGGCTTA,0.118
TAGTGTGA,0.211
CAATATCA,0.357
CGAACCGC,-0.337
TAACTGAA,0.137

# Excerpt of the above (series 1):
Strand,fitted relative affinity
TCATTTACCCATCTCCAACTGTGCTAG,3.46 z-score
TTAGGTACCCTTCTCCTTTAGTGCTAG,5.79 z-score
TTAAGTCTCCTACTGCTTTAGTGCTAG,1.12 z-score
TTAGGTATCCTTCTCCTTGAGTGCTAG,6.71 z-score
TCAAACCCCATTCTCAGACTGTGCTAG,1.21 z-score
GACGGTATCGACACTGGGGCCGTGCTA,0.378 z-score
TTAGGTCGCCTTATCCTTTAGTGCTAG,1.07 z-score
GACGGTCTCGGTTTCGGGTCGTGCTAG,4.33 z-score
GACGGACTGGGTATCGGGATGTGCTAG,-0.0626 z-score
TTAAGTCTCCTTTTCCTTTAGTGCTAG,6.02 z-score
GACGGTCTCGCACTGGGGACGTGCTAG,-0.0903 z-score
TTAGGACTGGACACTTGGTTAGTGCTA,-0.711 z-score
GACGGTCTCGGTATCCGGACGTGCTAG,2.19 z-score
TCATTTTGCTTTCTTTTACTGTGCTAG,2.97 z-score
TTCACTCTCTGCTTGTGTCTGTGCTAG,0.154 z-score
TGAGGTCTCGGACTGGGTTAGTGCTAG,-0.893 z-score
